{"data": "Experimental data pooled from the literature", "target": "5-hydroxytryptamine receptor 2A (HTR2A, Homo sapiens, UniProt P28223)", "note": "Each line is one published result; not all experiments were run side by side. Numbers after ± are the reported error.", "UniProt P28223, sequence (whole entry, looked up)": "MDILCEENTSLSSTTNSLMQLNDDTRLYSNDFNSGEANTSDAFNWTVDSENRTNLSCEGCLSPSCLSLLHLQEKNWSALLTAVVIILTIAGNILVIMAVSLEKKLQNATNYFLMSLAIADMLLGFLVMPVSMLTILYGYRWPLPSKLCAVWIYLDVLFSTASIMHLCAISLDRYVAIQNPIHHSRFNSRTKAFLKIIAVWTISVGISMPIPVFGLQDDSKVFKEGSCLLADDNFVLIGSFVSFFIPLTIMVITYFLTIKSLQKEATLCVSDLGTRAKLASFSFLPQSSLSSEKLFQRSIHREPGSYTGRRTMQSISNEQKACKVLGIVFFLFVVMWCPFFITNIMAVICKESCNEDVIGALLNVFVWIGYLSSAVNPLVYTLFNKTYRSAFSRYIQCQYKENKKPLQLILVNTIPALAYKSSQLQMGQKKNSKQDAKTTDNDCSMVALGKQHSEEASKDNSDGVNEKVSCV"}
{"SMILES": "CN1CCN(c2cc(-c3ccncc3)c(-c3ccc4ccccc4c3)nn2)CC1", "assay": "agonist, FLIPR", "setting": "12.5 µM", "endpoint": "activation", "value": "-8.5%"}
{"SMILES": "CNC(C)Cc1ccc2nonc2c1 (stereo not drawn)", "assay": "agonist", "scale": "reference: 5-HT", "endpoint": "Emax", "value": "56.1 ± 2.3%"}
{"SMILES": "COc1c(O)c(I)c2c3c1-c1cc4c(cc1CC3N(C)CC2)OCO4 (stereo not drawn)", "assay": "calcium flux, antagonist, FLIPR", "test system": "HEK293", "setting": "added: serotonin", "endpoint": "apparent Kb", "value": "133 ± 27 nM"}
{"SMILES": "CCCC(NCCc1cc(OC)c(C#N)cc1OC)c1ccccc1O (stereo not drawn)", "assay": "agonist", "endpoint": "Emax", "value": "64%"}
{"SMILES": "CNC(C)Cc1ccc2nsnc2c1 (stereo not drawn)", "assay": "agonist", "scale": "reference: 5-HT", "endpoint": "Emax", "value": "67.2 ± 2.3%"}
{"SMILES": "COc1cc(CCNC(C)c2ccccc2O)c(OC)cc1C#N (single isomer, unassigned; (+))", "assay": "agonist", "setting": "cell-based", "endpoint": "Emax", "value": "91%"}
{"SMILES": "N#C[C@@]12C[C@@H]1[C@@H](n1cnc3c(N)nc(Cl)nc31)[C@H](O)[C@@H]2O", "setting": "concentration not given", "endpoint": "activity", "value": "inactive"}
{"SMILES": "COc1cc(CCNC(c2ccccc2O)C2CC2)c(OC)cc1C#N (stereo not drawn)", "assay": "agonist", "endpoint": "Emax", "value": "86%"}
{"SMILES": "COc1c(O)cc2c3c1-c1cc4c(cc1CC3N(C)CC2)OCO4 (stereo not drawn)", "assay": "calcium flux, antagonist, FLIPR", "test system": "HEK293", "setting": "added: serotonin", "endpoint": "apparent Kb", "value": "282 ± 37 nM"}
{"SMILES": "COc1cc(CC(C)N)c(OC)cc1I (racemic)", "assay": "binding, agonist, radioligand binding", "endpoint": "Hill coefficient", "value": 0.7}
{"SMILES": "COc1c(Cl)c2c3c(c1OC)-c1cc4c(cc1C[C@@H]3N(C)CC2)OCO4", "assay": "calcium flux, antagonist, FLIPR", "test system": "HEK293", "setting": "added: serotonin", "endpoint": "apparent Kb", "value": "63 nM"}
{"SMILES": "CN1CCN(c2nc(N)c3ccccc3n2)CC1", "assay": "radioligand binding, radioligand competition binding", "setting": "0.1 µM, second replicate", "scale": "reference: control specific binding", "endpoint": "inhibition", "value": "9.4%"}
{"note": "For quick reference, copied from above:"}
{"SMILES": "COc1c(O)c(I)c2c3c1-c1cc4c(cc1CC3N(C)CC2)OCO4 (stereo not drawn)", "assay": "calcium flux, antagonist, FLIPR", "test system": "HEK293", "setting": "added: serotonin", "endpoint": "apparent Kb", "value": "133 ± 27 nM"}
